Measured values collected from several papers.
Parts stem from different laboratories: compare values within a part only.

Series 1 — method: aptamer microarray, sandwich; form: DNA with 2'F-ANA; sample: in vitro; concentration: 200 nM; added: Cy3 exosite-II aptamer, 400 nM; direction: higher = stronger binding; measurement: mean fluorescence intensity; strand: GGTTGGTGTGGTTGG
Target: Prothrombin, mature alpha-thrombin (F2, Homo sapiens, UniProt P00734)
Notes: whole 15-mer aptamer, many near background
2'F-ANA at 3 9 12 13 14: 616 a.u.
2'F-ANA at 2 3 4 5 6 7 9 13 15: 59.5 a.u.
2'F-ANA at 1 2 10 11 12 14 15: 57 a.u.
2'F-ANA at 4 5 6 8 10 14: 54.8 a.u.
2'F-ANA at 2 4 9 10 11 12 13 14: 65.5 a.u.
2'F-ANA at 1 4 5 6 8 13 14 15: 75.3 a.u.
2'F-ANA at 2 6 7 8 9 10 12 13 14: 88.6 a.u.
2'F-ANA at 2 3 5 6 8 10 12 13: 62.3 a.u.
2'F-ANA at 1 3 4 6 7 8 10 11 13 14: 53.1 a.u.
2'F-ANA at 10 12 15: 246 a.u.
2'F-ANA at 1 3 4 5 6 7 10 11: 45.8 a.u.
2'F-ANA at 4 5 7 8 9 13: 54 a.u.
2'F-ANA at 4 5 10 11: 54 a.u.
2'F-ANA at 2 3 5 8 10 12: 65.7 a.u.
2'F-ANA at 1 3 6 7 8 11 15: 264 a.u.
2'F-ANA at 2 3 6 7 9 10 12 15: 352 a.u.
2'F-ANA at 2 3 5 6 14: 48.4 a.u.
2'F-ANA at 5 7 9 11 13 14 15: 43.5 a.u.

Series 2 — method: RNA Bind-n-Seq; form: RNA; sample: in vitro; concentration: 365 nM; relative to: no-protein control; direction: higher = stronger binding; measurement: RBNS enrichment (R)
Target: RNA binding protein fox-1 homolog 2, RRM domain, GST-SBP tag (RBFOX2, Homo sapiens, UniProt O43251-10, residues 100-194)
Notes: natural RNA segment, single round, ends assumed
Constant ends, left off below: GGGAGUUCUACAGUCCGACGAUC … UGGAAUUCUCGGGUGCCAA
Residues (chain): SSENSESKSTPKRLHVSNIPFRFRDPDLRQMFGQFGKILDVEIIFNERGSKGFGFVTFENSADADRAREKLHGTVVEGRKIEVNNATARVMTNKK
UGGAAGAAAAUAACCUUAUUGUUUUCUUAAAGCUAAACAGAAUAGGAUUGGUACUCAUUAAUUAUGUCUUGCAAAUAUUUUCUAAAAAUUCAACCACUCUCCUAAAAUGG: 1.16
UCUAAGUUGUCCAGGUGCUCAGCUCCUGUGUGCCUGGAUGAUGAGAGGGCUCUAGGGCUCUUUCAGUCAGAGACUUACAUUGAGGUGGGGUGAGGGUCAGAGAAAGUUCU: 0.62
GAAAUAGUCUUUGCUCAUUCUUGGGAUGCCUGAACGCUAGCUAAGCAUCUGAUAAACGCUGUGGAGACUUAGCCCAACACAAGCUCCAGUGUCUGUAGGAGUCGGCCUCA: 0.548
GUCACUGGUAGGUAAGCAUGAGUUAAGGAAAGUCAAAAAUGAAAAUAUAUUUUGCUGUGUAUAAAUUGAUAUUUUGCUAUGCAACUCCUGUAAUUGAAUUUGUAUAAUGC: 6.5
CCCCUUCGUGUUGCCAUCAUCUUGUUGAAUCAGCCAUUUUAUCGAGGCACGUGAUCAGUGUUGCAACAUAAUGAAAAAGAUGGCUACUGUGCCUUGUGUUACUUAAUCAU: 0.956
ACUGUUGCGGAGAGCUCUGAUGGGAACUGUGCAACAUGGAGCGUGGAGCCUGCCGAUCCUAGCUCAGAGAGGCUGCCUUCAUGGCCUGUUACUCCAGCUAACGCUUUGAU: 0.262
UUGCCAACAAGAAUGUGUGGCGCCCCACAUCUCCCUACCUUGCACUCUAGGGCCAGACCACUCUCUGUAUGGACCAGACCAUCUUCCCAAACCCAUGGUGCUUUCCCCCC: 0.541
ACAGUGCUACUUCUAAGUGAUGUUUAUUUUCUGUACCUGAAAUGGUUGCAAUUUAGAGAUGUUCCAAUUCCAAGAAACUUCGUUUUACUUUACCAAGAAAAAUCCUGUCU: 0.658
AGGGGAAGUUGAAACCCUAGGGCACCCCCACCACCUCUGCUCGAGAGGUCCGUGGGGGAGGCCGUGGGCAAAGGUGUCCCGAGCUGCCAUGUUUAGGAAACACACUGUAC: 0.265
CUCUGCAAGAAGCUCAAGGAAGCUCAGGGAAAAUGGACGUAUUCAGAGAGUGUUUGUAGUUCAUGGUUUUUCCCUACCUGCCCGGUUCCUUUCCUGAGGACCCGGCAGAA: 0.482
UGAAAUGUUUUUCAAACCAUCCUCUCCUCAGGCCACCACCCCUUACCCUAACCCAUCACGCCCUGGUGAAGCCCCCAAGGCCUGCUGCUUUGGGGUGUGGCCUGUGACUG: 0.229
AUUUGUAUUAUGCUGGAAUUUUUUGGGCUUUCAGAUUUCUCUUUUUAACCACAUUUCUGAAUGUAUAAAAAUACCAAUUAUUUUCCUACAGCCCUUUGUACUUCAAAAUA: 0.968

Series 3 — method: RNA Bind-n-Seq; form: RNA; sample: in vitro; concentration: 1 µM; notes: whole 134-nt RNA, ends assumed; added: 150 mM KCl; relative to: input library; direction: higher = stronger binding; measurement: log2 enrichment
Target: Ras GTPase-activating protein-binding protein 1, RRM domain (G3BP1, Homo sapiens, UniProt Q13283)
Chain of UniProt Q13283 (whole entry, looked up): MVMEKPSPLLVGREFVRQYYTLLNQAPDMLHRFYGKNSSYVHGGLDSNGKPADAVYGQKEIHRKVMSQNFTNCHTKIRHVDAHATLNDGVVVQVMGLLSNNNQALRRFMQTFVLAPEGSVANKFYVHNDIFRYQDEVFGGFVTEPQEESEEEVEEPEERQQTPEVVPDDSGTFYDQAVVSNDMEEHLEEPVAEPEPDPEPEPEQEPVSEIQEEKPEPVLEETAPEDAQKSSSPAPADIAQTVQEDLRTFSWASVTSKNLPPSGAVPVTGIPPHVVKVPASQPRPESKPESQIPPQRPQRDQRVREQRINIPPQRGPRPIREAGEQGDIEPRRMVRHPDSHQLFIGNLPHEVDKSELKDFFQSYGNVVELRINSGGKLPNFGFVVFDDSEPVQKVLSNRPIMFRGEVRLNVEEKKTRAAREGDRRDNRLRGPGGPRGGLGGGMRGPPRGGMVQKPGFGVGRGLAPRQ
Constant ends, left off below: GGGAGUUCUACAGUCCGACGAUC … UGGAAUUCUCGGGUGUCAAGG
CUGUGCUACACAUCGUAUGUACCGAAUCGGGGAAAAAAGGGGAAAAAAGGGGAAAAAAGGGAAAGUAUUAUGUUACGCCGUUCGGAUCUG: 0.0944
UCAAGUCCUGUGCUACACAUCGUAUGUACCGAAUCGGAAGGGGAAGGGAAGGGGAAAGUAUUAUGUUACGCCGUUCGGAUCUGCACUUCC: 0.659
AAGUCCUGUGCUACACAUCGUAUGUACCGAAUCGGGGUUUGGGGUUUGGGGUUUGGAAAGUAUUAUGUUACGCCGUUCGGAUCUGCACUU: -0.562
UUCACAGCCAGCAGGCAUUGGAAUAUGGCACCAAACUCGUUGGAGGAACCACUCCAGGGAAAGGAGGCCAGACACAUCUGGGCUUACCUG: -0.381
GUCCUGUGCUACACAUCGUAUGUACCGAAUCGGUUUUUGGGGUUUUUGGGUUUUUGGGAAAGUAUUAUGUUACGCCGUUCGGAUCUGCAC: -0.119
AAGUCCUGUGCUACACAUCGUAUGUACCGAAUCGGAAAAAGGAAAGGUUUUUUUGGAAAGUAUUAUGUUACGCCGUUCGGAUCUGCACUU: -0.34
CACAGACAACACGCACCCACACAGACACAGAGGGAAGGGGUUGGGAUGGGGACAGGGUUCACAGCAGGGCGGGGUAGGACCCCAGCCCCU: -0.1
ACCAUGCUGGUGGGCAUCUUUGGGAAGUGGGGCAAGGGGGGGAUAGGGAGGGGGGUAACACUUUGGGAACAGGUGGUCCCAGGUCGUUUC: -0.69
CUCAAGUCCUGUGCUACACAUCGUAUGUACCGAAUCGGUUGGUUGGGGUUGGGGAAAGUAUUAUGUUACGCCGUUCGGAUCUGCACUUCC: -0.135
ACCAAAAAGGUGGGCAUCUUUGGGAAGUGGGGCAAGGGGGGGAUAGGGAGGGGGGUAACACUUUGGGAACAGGUGGUCCCAGGUCGUUUC: -0.377
CUCAAGUCCUGUGCUACACAUCGUAUGUACCGAAUCGGGCCGGGCCGGGCCGGGAAAGUAUUAUGUUACGCCGUUCGGAUCUGCACUUCC: -0.755
UCAAGUCCUGUGCUACACAUCGUAUGUACCGAAUCGGAGGUUUUUUUGGAAAGGAAAGUAUUAUGUUACGCCGUUCGGAUCUGCACUUCC: -0.146
UCCUCAAGUCCUGUGCUACACAUCGUAUGUACCGAAUCGGGGAGGAGGAGGAAAGUAUUAUGUUACGCCGUUCGGAUCUGCACUUCCAGC: -0.288
UCAAGUCCUGUGCUACACAUCGUAUGUACCGAAUCGGGGAAAGGGAAAGGAAAGGAAAGUAUUAUGUUACGCCGUUCGGAUCUGCACUUC: -0.304

Series 4 — method: protein binding microarray; form: double-stranded DNA, one strand shown; sample: in vitro; concentration: not given; relative to: not given; direction: higher = stronger binding; measurement: E-score
Target: Histone acetyltransferase KAT6A, winged helix 2, GST fusion (KAT6A, Homo sapiens, UniProt Q92794, residues 85-181)
Notes: 8-mer, flanks averaged, mean of 2 arrays, mostly near background
Construct (chain): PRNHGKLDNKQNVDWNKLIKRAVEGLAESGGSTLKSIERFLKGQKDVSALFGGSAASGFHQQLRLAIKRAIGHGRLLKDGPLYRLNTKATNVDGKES
GGATCCGA: -0.0377
CCTCGGCA: 0.182
AGTAGGTA: -0.122
GCGAGTCC: -0.0315
GTACAGAC: -0.0327
TAACACAA: -0.0675
CTCCGATC: 0.0882
AACCCCTC: -0.238
GAGGGAAC: -0.0249
CAGTGCAG: 0.119
CTCTTAGA: 0.164
ATTCTTCG: -0.00159
ATAGCTCC: -0.174
CGGATCTC: 0.0327
GGCAGGGA: 0.0269
GGCAGCCA: -0.063
ATAGGTAA: -0.0984
CTGGCCAC: -0.0341
GATGGTAA: -0.158
GCGCCACA: 0.0474
AATAATAA: 0.166
AAGGACAT: -0.0103
ATCTCTTC: -0.0222
ATTGACTG: -0.106
ATTCGTGC: 0.0828
